Measurements gathered from unrelated publications.
Every numbered part comes from another study and shows a few of its results, in no order.

Set 1 — method: RNA Bind-n-Seq; molecule type: RNA; medium: in vitro; concentration: 365 nM; relative to: no-protein control; reading: higher = stronger binding
Target: RNA binding protein fox-1 homolog 2, RRM domain, GST-SBP tag (RBFOX2, Homo sapiens, UniProt O43251-10, residues 100-194)
Setting: natural RNA segment, single round, ends assumed
Residues (chain): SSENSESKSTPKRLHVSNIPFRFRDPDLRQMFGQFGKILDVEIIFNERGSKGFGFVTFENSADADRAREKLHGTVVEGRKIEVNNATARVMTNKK
| Strand | RBNS enrichment (R) |
| --- | --- |
| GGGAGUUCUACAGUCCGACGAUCGUCUGGCUGCGGGGAAGGGGCAAGAAGGCGGGCAGGCCUUCACUGCAGCACUGAGCCUCAAAUCCGCUCUGGAGCAUGAGGCUGGAUGCAGUGGUGGUGAGGCCGCCCCGUGGAAUUCUCGGGUGCCAA | 0.419 |
| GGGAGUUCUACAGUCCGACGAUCUCAUCCAUACUGGGAAUUGUCUUGUUUUGAUACUGUGUUUUUCUGUGUUGCUUAAACUUCAAGAAUUACAAAUGUGGACCUGGCACAUGCUGUGGUUUAACAUUGACACUUGGAAUUCUCGGGUGCCAA | 0.637 |
| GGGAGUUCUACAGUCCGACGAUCUUUUAGGUAAACAUGACAUGACAUGUACUUGUAAUAUCAGUGAAAGGGGCUUUUAGUCGUCUCAGUAUCUUUUUUGCAUUCAGGUAUUAUAGCGUUUCCAACAAAUUGAGUGGAAUUCUCGGGUGCCAA | 1.28 |
| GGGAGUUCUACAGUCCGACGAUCUUUCUAGAAUUCUCCAGGGAUUUGGGCUUGGGAAACUUGGUAAGAAUAGUUUUUAUUUUUGAACAUUCAACUUUGGUUCUUCAAAGUAAUCUUUAAACAUGGGAAUAUGUUGGAAUUCUCGGGUGCCAA | 0.798 |
| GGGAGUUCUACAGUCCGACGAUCCGGGGUCUGAAGACUGUCUUCCUAUCUGCUUCUUGCGGCUGAGGAGAGGAGCAGUUCAGUUUACAAAACAAGUGCAAAUUACCAAACUCAAAGCUUAUUUGAGUAGAAUGUGGAAUUCUCGGGUGCCAA | 1.26 |
| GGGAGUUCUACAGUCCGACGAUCCGAAAGAUUAUUUCCUGUGUUUGCUUUGAUUUGUUCCUCAGUACAUUAAAAUGAUCCACACCUUGAACACUGCCCUCUCUAGAAGGUUGAUUUUGAUCAGCCUUUUGAAGUGGAAUUCUCGGGUGCCAA | 0.289 |
| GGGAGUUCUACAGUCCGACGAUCCUUCAUAAUGAUUUUAUGUCUUGCUUUAAAGAUAGUACCUGCAGAAUAGUUUUUGAAUACACCCACAUUUUGUACGUUUCCAUGUAAGCUGACAUAGUGUUCUGCCAUGUUGGAAUUCUCGGGUGCCAA | 0.492 |
| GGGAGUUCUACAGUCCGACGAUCGAUGUAAAUCUGUUUUUUAAAAACACUUUUUAGGGGCUUGAGAGCUGCCACCUGGCAUUUAGUUUAGUGCGGCCAGUGACUGCUUCAAGAGACUUCUGACCUUGCUUCCCUGGAAUUCUCGGGUGCCAA | 1.65 |

Set 2 — method: RNA Bind-n-Seq; molecule type: RNA; medium: in vitro; concentration: not given; relative to: input RNA pool; reading: higher = stronger binding
Target: RING finger protein unkempt homolog, zinc fingers 1-6, GST-SBP tag (UNK, Homo sapiens, UniProt Q9C0B0, residues 30-357)
Chain of UniProt Q9C0B0 (30-357, looked up): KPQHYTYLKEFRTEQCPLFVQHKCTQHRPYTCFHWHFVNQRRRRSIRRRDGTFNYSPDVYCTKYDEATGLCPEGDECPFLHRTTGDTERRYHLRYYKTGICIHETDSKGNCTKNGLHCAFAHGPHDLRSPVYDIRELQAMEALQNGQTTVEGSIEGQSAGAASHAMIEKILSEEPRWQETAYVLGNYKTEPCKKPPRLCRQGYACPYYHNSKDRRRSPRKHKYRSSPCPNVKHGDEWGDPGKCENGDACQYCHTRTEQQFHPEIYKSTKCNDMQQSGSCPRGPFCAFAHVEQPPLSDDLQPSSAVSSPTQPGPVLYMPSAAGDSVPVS
Setting: RNA with constant flanks, human-mouse chimeric sites, ends assumed
| Strand | bound/input enrichment |
| --- | --- |
| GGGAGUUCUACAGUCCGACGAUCUUCUAGUAUGAUGGUGAUAUUGGCAAUUAUUAUUAUGGCCAGGGUCAUCCCAUGAAGCCUCAUAGAAUCCGGAUGACUCAUAACUUGCUGCUAAAUUAUGGUUUAUACAGAAAAAUGGAACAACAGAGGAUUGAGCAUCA | 0.299 ratio |
| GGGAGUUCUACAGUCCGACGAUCAUUGUUGAAGCGAAUCCACUCCUAGAAGCAUUUGGAAAUGCAAAGACUGUUCGCAACAAUAAUAGCAGUCGAUUUGGAAAAUUUGUAGAAAUUCAUUUUAAUGAAAAGAGUUCGGUUGUUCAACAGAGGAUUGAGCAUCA | 0.52 ratio |
| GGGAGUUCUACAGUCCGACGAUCACUCUUGACUCUUUCCAUCCUCUUCCUUUCCCUCUUGAUAUUCAAGGCCAUGAAUCCCAAAAUAGCUGUCUUAGUGGCUAGCACCCAAACAGAGGUGGGUGCCAUCCACCCCAGUGUCUCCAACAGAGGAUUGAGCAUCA | 0.677 ratio |
| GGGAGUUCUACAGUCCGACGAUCACCUCCCCCUCCCGCCUCACCCCACCCCCGCUUUUUGAAAGUGUGUUGGCGUUUCUUUUCCUUCCCCAUACAAAGUGAUUACAGUUUCCCCCGCAAGGGUCUAUCGAAGGGCUUGACGGACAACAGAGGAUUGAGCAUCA | 1.32 ratio |
| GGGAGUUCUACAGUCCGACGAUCAUGGAGAAGGAUUCUCUGCCCCGCUUUGUGCGCUCUGAAUUUUAUAAGGAGCUAAUCAAGUAGUAAUCUGGUCAGGCUUCCAAAAGUUGCCCUGUGAGUUGAGUUACAUAAUAACCCGCACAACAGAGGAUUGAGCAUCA | 0.188 ratio |
| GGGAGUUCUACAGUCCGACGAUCAGAGCCCAGGAUGUUGAUGCUACAAAUCCAAAUUACGAAAUUAUGUGUAUGAUCAGAGACUUUAGAGGGAGCUUGGAUUACAGACCCUUAACAACAGCAGAUCCUAUUGAUGAACAUAGGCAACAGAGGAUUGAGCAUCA | 0.44 ratio |
| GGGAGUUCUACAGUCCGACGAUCAACUUCGUACAUAGAUUUCCCUUUGUAGCUGUUUCAAUUGGCUUCCUUGUGAAUAAAGAGAUGGAGUUUGGAGUUGUGUACAGCUGUGUGGAAGAUAAGAUGUACACCGGCAGGAAAGGGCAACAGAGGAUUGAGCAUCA | 1 ratio |
| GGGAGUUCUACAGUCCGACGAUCGGGGAGAAACCUUACGAGUGUGUGCAGUGUGGGAAAUCGUAUAGUCAGAGCUCAAACCUCUUCAGACAUCAGAGACGACACAAUGCAGAAAAACUUCUGAAUGUUGUGAAGGUUUAAGAACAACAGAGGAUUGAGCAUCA | 1.1 ratio |

Set 3 — method: protein-binding microarray; molecule type: double-stranded DNA, one strand shown; medium: in vitro; concentration: 940 nM top; setting: 60-bp whole probe; with: salmon DNA 0.4 mg/ml; relative to: random background probes; reading: higher = stronger binding; all sequences stand within: GCCTAGCAC … GTCTTGATTCGCTTGACGCTGCTG
Target: Interferon regulatory factor 5, full length, phosphomimetic (IRF5, Homo sapiens, UniProt Q13568-2, residues 1-514, S451D/S453D/S456D/S462D)
| Strand | fitted relative affinity [z-score] |
| --- | --- |
| GACGGTCTCCTTATCCGGACGTGCTAG | 0.555 |
| CTGCTCTGTGCACAGAAGACGTGCTAG | -0.185 |
| AAGATTCTAGCCTATAGAAGCGTGCTA | -0.388 |
| ATTGCTTTCTCTTTCACTACGTGCTAG | 3.5 |
| GACGGTTTCTGGACTGGGGACGTGCTA | 1.65 |
| AGTATGTTCCCTATTTAAGGGTGCTAG | 0.284 |
| GACGATATCGGGTATCGAGACGTGCTA | 0.691 |
| TTAGGGTTCGGGTTTCGGTTAGTGCTA | 6.2 |
| GACGAGTTCAGTCTCGAGACGTGCTAG | 1.29 |
| TCATCTTTCCTTACTTCACTGTGCTAG | 1.64 |
| GACGGTTTCGGTGCCGGGACGTGCTAG | 11.3 |
| TTAGATTTCAGTCTCGATAAGTGCTAG | 3.67 |
| TTAGGTATCCTACTTCTTTAGTGCTAG | 0.396 |
| TTATCAATCATTTTAGTTTTGTGCTAG | 0.764 |
| GACGGACTGGACTATCGCGACGTGCTA | -0.551 |
| GACGATTTCAGACTGGCGACGTGCTAG | -0.431 |
| CTCTTGTTCTCTCTGGCCCTGTGCTAG | 1.52 |
| CATGAACTGTTTCTTGAAAAGTGCTAG | -0.15 |
| GACGGTCTCGAACTGGGGACGTGCTAG | 0.0959 |

Set 4 — method: protein binding microarray; molecule type: double-stranded DNA, one strand shown; medium: in vitro; concentration: not given; relative to: not given; reading: higher = stronger binding
Target: Histone acetyltransferase KAT6A, winged helix 2, GST fusion (KAT6A, Homo sapiens, UniProt Q92794, residues 85-181)
Setting: 8-mer, flanks averaged, mean of 2 arrays, mostly near background
Residues (chain): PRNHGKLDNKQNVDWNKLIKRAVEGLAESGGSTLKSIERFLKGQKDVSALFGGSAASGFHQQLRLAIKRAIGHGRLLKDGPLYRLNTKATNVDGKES
| Strand | E-score |
| --- | --- |
| CGAACCCA | 0.19 |
| CTGTCCGC | 0.0307 |
| AAATGTGC | 0.0339 |
| CTTAGTCA | -0.0277 |
| CAGGATGA | 0.0136 |
| ATACCTTA | -0.0847 |
| CGAGTCCC | -0.0203 |
| AGTTAAAT | -0.0168 |
| GGAATGCA | 0.00671 |
| ATCTGTCG | 0.0923 |
| AACGCAGT | -0.0535 |
| GTTGGAAA | 0.0217 |
| GATTACTA | -0.0982 |
| ATTAATAG | 0.111 |
| CCATGTAC | -0.18 |
| GACGTTCC | -0.143 |
| AGTCGTGG | -0.00762 |
| GCTAATCA | 0.161 |
| ACAAGCGT | 0.0445 |
| AATCAGCC | -0.0817 |
| TCCGGGAA | 0.139 |
| CGAGAGGA | 0.0203 |
| ACGGAAGG | 0.00194 |
| CATGCAAA | -0.0623 |
| GCCGTTAA | -0.00492 |

A few entries again (set 4):
| Strand | E-score |
| --- | --- |
| GGAATGCA | 0.00671 |
| TCCGGGAA | 0.139 |
| GATTACTA | -0.0982 |
| GTTGGAAA | 0.0217 |
| CCATGTAC | -0.18 |
